# Experimental data gathered from unrelated publications.
# Numbered parts are unrelated; each lists some results of a single study. Substitutions count along the parent as printed.
# Sequence of UniProt O75385 (whole entry, looked up): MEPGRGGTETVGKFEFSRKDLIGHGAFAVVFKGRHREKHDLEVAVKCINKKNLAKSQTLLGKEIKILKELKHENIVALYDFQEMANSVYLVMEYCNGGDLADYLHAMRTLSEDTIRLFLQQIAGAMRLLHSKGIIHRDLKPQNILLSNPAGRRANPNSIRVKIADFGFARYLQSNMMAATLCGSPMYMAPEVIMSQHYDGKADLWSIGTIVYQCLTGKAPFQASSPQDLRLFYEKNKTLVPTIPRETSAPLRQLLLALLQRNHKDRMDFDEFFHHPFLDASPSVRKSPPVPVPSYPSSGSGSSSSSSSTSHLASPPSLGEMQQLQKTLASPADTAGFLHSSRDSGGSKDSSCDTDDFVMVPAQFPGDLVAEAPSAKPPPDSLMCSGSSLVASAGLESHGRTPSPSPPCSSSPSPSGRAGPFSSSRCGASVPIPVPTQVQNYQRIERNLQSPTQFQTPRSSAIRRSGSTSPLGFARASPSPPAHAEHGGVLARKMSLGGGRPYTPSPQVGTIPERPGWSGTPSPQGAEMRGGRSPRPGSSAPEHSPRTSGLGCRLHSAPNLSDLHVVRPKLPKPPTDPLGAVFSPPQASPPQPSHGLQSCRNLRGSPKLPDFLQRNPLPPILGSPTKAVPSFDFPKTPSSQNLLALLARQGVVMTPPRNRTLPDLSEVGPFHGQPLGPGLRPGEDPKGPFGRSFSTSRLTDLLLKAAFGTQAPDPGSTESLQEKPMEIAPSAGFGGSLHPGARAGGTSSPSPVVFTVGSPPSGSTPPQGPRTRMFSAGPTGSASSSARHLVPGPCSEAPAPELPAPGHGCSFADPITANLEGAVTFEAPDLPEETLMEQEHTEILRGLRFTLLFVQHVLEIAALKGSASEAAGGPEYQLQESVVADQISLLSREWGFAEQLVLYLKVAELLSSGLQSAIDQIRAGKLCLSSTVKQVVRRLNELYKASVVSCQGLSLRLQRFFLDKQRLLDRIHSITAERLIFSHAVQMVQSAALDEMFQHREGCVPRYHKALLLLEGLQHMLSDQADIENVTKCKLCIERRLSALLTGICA
# Sequence of UniProt Q9Y6M4 (whole entry, looked up): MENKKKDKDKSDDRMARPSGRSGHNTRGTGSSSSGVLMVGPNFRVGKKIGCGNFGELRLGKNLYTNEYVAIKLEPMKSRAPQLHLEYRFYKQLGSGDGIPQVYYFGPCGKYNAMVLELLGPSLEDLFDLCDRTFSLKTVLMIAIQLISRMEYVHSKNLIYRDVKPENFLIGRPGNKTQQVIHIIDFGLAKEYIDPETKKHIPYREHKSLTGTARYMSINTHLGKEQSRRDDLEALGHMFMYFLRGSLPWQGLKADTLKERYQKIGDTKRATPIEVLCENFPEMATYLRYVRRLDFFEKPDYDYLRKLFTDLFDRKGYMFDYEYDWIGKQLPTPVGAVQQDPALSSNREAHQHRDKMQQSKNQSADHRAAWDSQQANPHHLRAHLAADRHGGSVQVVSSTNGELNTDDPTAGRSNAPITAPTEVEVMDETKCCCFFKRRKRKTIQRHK
# Sequence of UniProt Q9BRS2 (whole entry, looked up): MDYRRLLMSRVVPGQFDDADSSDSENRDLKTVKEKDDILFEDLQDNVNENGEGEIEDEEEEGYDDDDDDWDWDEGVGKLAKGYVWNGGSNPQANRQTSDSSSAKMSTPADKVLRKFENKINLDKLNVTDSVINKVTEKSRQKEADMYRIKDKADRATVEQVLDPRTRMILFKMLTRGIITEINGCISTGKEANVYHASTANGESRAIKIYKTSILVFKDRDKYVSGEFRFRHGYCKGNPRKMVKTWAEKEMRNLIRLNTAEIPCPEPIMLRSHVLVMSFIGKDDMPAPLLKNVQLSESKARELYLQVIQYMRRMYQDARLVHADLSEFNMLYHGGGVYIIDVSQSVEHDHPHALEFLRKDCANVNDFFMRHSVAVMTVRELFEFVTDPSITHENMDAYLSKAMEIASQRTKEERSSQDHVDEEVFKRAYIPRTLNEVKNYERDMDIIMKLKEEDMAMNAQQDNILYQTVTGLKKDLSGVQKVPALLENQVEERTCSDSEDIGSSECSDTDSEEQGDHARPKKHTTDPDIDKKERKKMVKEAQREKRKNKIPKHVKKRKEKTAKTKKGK
# Sequence of UniProt O60331 (whole entry, looked up): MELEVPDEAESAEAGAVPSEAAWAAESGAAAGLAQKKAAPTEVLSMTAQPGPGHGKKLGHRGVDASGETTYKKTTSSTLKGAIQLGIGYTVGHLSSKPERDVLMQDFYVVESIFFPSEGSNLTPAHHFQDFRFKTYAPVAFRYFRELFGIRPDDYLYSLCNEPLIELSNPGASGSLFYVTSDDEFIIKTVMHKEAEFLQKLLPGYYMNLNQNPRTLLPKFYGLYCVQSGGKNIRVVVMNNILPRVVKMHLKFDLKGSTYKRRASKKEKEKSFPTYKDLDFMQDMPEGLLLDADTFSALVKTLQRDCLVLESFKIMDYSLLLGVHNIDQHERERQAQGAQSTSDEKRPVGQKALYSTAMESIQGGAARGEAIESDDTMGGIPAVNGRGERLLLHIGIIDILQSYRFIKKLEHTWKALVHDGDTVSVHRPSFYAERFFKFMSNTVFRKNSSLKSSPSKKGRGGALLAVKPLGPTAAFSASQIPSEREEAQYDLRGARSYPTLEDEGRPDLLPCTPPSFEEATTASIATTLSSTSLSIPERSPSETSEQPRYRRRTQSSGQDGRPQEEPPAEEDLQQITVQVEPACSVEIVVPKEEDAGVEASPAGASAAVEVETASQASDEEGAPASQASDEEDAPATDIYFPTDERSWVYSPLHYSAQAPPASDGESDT
# Sequence of UniProt Q32MK0 (whole entry, looked up): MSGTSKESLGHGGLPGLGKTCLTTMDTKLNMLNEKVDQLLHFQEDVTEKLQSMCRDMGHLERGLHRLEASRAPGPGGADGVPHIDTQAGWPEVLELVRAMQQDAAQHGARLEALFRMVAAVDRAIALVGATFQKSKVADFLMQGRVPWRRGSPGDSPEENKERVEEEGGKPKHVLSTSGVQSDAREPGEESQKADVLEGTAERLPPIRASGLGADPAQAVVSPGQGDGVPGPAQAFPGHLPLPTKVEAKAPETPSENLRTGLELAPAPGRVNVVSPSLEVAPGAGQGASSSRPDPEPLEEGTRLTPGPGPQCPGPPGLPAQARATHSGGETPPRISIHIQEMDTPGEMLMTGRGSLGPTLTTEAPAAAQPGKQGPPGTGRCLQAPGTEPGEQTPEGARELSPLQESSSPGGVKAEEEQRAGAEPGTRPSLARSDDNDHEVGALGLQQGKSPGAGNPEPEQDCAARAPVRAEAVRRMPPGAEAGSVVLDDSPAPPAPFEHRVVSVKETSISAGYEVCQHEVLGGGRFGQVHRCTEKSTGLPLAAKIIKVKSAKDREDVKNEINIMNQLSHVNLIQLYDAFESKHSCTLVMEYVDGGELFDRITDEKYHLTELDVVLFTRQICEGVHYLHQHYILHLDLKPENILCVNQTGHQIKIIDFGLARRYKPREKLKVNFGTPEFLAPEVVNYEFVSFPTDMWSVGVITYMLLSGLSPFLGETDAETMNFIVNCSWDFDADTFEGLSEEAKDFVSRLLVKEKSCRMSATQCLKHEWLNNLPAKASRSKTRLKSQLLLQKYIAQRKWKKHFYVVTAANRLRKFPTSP
# Sequence of UniProt Q8NI60 (whole entry, looked up): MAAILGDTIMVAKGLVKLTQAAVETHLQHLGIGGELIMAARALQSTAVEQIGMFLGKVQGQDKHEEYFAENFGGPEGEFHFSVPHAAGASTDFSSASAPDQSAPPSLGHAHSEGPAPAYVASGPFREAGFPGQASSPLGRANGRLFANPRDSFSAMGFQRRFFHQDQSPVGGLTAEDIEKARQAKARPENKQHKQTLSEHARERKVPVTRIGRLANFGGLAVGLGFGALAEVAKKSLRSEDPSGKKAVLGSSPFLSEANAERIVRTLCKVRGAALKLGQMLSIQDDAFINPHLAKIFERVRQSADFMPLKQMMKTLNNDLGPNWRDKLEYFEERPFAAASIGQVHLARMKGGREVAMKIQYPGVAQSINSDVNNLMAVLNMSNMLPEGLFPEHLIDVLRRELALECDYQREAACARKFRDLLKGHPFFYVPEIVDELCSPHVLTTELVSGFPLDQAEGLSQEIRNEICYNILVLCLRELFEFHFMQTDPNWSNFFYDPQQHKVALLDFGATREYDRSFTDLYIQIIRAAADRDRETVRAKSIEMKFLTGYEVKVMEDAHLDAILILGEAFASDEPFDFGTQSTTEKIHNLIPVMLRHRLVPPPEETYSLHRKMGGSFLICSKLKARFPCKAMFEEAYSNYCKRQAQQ

# Study 1
# Target: CCNA2, cyclin fold, Cln2 fusion (human)
# Method: yeast growth competition, sequencing
# Matrix: yeast
# Setting: strong parent motif
# Relative to: not given
# Direction: higher = stronger binding
# Parent: BRCA2 docking peptide (human); PSIKRNLLNEFDR; partner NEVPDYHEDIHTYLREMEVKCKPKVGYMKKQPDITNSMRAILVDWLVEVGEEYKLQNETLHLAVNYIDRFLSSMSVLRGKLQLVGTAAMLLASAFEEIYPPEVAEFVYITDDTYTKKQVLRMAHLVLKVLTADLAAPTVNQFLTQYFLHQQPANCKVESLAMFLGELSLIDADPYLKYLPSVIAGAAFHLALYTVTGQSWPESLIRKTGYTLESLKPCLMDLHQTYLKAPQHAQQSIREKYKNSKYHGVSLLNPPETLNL
Substitution,normalised enrichment score
F11L,1.8
D12T,4.37
K4R,5.86
N9C,4.49
F11Q,0.461
E10I,2.22
L8G,1.7
L8Y,3.14

# Study 2
# Target: Protein kinase C alpha type (PRKCA, Homo sapiens, UniProt P17252)
# Effect on: enzyme activity
# Mode: inhibitor
# Concentration: 0.5 µM
# Relative to: control
SMILES,remaining activity [%]
CCOc1nc(NC(=O)Cc2cc(OC)ccc2OC)cc(N)c1C#N,99.9
N#Cc1c(NC(=O)c2cccc3ccccc23)sc2c1CCCC2,99.5
c1ccc(-c2[nH]ncc2-c2ccnc3ccccc23)nc1,98.5
Nc1cccc(-c2cc3c(Oc4cccc(O)c4)ncnc3[nH]2)c1,95.6
CCN(CC)C(=O)c1ccc(Nc2nc(OCC3CCCCC3)c3[nH]cnc3n2)cc1,82.5
O=C1c2ccccc2-c2n[nH]c3cccc1c23,76.1
O=C(NC(NC(=S)Nc1ccc(F)c([N+](=O)[O-])c1)C(Cl)(Cl)Cl)C(c1ccccc1)c1ccccc1 (stereo not shown),73.1
CCN(CC)CCNC(=O)c1c(C)[nH]c(/C=C2\C(=O)Nc3ccc(F)cc32)c1C,79.9
O=C1C(Cl)=C(N2C(=O)CCC2=O)C(=O)c2ccccc21,99.1
COc1cc2ncnc(Nc3cccc(Cl)c3)c2cc1OC,111
Cc1cc2ncc(-c3ccccc3)nc2cc1C,90.5
CN([C@@H](Cc1ccc(OS(=O)(=O)c2cccc3cnccc23)cc1)C(=O)N1CCN(c2ccccc2)CC1)S(=O)(=O)c1cccc2cnccc12,105
C[C@@H]1CCN(C(=O)CC#N)C[C@@H]1N(C)c1ncnc2[nH]ccc12,78.7
Cc1cn(-c2cc(NC(=O)c3ccc(C)c(Nc4nccc(-c5cccnc5)n4)c3)cc(C(F)(F)F)c2)cn1,83.5

# Study 3
# SMILES: Cc1c(NC(=O)c2cc(C(N)=O)nc3cc(F)ccc23)c(C(F)(F)F)nn1Cc1ccc(C(C)(C)C)cc1
# Effect on: cell-free assay
# Method: competition with immobilised ligand
# Concentration: 1 µM
target,remaining binding [%]
"CSNK1G3 (Homo sapiens, UniProt Q9Y6M4)",100
"FGR (Homo sapiens, UniProt P09769)",96
"ULK1 (Homo sapiens, UniProt O75385)",98
"CAMK1G (Homo sapiens, UniProt Q96NX5)",100
"STK32B (Homo sapiens, UniProt Q9NY57)",100
"WNK1 (Homo sapiens, UniProt Q9H4A3)",100
"CHEK2 (Homo sapiens, UniProt O96017)",99
"MUSK (Homo sapiens, UniProt O15146)",97
"COQ8A (Homo sapiens, UniProt Q8NI60)",85
"MYLK3 (Homo sapiens, UniProt Q32MK0)",100
"PLK4 (Homo sapiens, UniProt O00444)",100
"RIOK1 (Homo sapiens, UniProt Q9BRS2)",93
"PIP5K1C (Homo sapiens, UniProt O60331)",78

# Study 4
# Target: Runt-related transcription factor 1, full length (RUNX1, Homo sapiens, UniProt Q01196-8, residues 1-480)
# Method: protein-binding microarray
# Form: hairpin DNA
# Matrix: in vitro
# Concentration: not given
# Setting: whole hairpin DNA, median over replicate spots
# Relative to: not given
# Direction: higher = stronger binding
Oligonucleotide,median fluorescence [a.u.]
GAGGCCTGTTGTGGGTGGCCTCCTGGCCACCCACAACAGGCCTCACACTC (5mC at 30),1970
CTCAGTTCTGTGGGCTCGACTCCTGTCGAGCCCACAGAACTGAGACACTC,1960
CTCAGTTCTATGGGCTGGACTCCTGTCCAGCCCATAGAACTGAGACACTC,1660
GAGGCCCAACCGCAGCAGCCTCCTGGCTGCTGCGGTTGGGCCTCACACTC,4400
GAGGCCCGTTGTGGTTGGCCTCCTGGCCAACCACAACGGGCCTCACACTC (5mC at 7),3170
CTCAGTTCTGTGAGCTGGACTCCTGTCCAGCTCACAGAACTGAGACACTC,1570
GAGGCCTGTCGCGGTTGGCCTCCTGGCCAACCGCGACAGGCCTCACACTC (5mC at 10 12 32 34),1970
GAGGCCTGTTGCGCGTGGCCTCCTGGCCACGCGCAACAGGCCTCACACTC (5mC at 14 30),1880

# A few entries again (study 2):
SMILES,remaining activity [%]
CCN(CC)C(=O)c1ccc(Nc2nc(OCC3CCCCC3)c3[nH]cnc3n2)cc1,82.5
Nc1cccc(-c2cc3c(Oc4cccc(O)c4)ncnc3[nH]2)c1,95.6
O=C1C(Cl)=C(N2C(=O)CCC2=O)C(=O)c2ccccc21,99.1
O=C1c2ccccc2-c2n[nH]c3cccc1c23,76.1
CN([C@@H](Cc1ccc(OS(=O)(=O)c2cccc3cnccc23)cc1)C(=O)N1CCN(c2ccccc2)CC1)S(=O)(=O)c1cccc2cnccc12,105
CCOc1nc(NC(=O)Cc2cc(OC)ccc2OC)cc(N)c1C#N,99.9
